Published values gathered from unrelated publications.
Numbered parts are unrelated; each lists some results of a single study.
Chain of UniProt Q9UQB9 (whole entry, looked up): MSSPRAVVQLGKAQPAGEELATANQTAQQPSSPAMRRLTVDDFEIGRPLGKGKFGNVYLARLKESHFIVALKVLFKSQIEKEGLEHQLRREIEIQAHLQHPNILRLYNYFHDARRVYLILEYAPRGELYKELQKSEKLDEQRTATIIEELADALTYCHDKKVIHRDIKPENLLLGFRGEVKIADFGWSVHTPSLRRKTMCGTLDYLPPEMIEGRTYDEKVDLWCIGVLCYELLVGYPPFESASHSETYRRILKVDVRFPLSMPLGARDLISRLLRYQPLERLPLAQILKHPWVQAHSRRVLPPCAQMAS
Chain of UniProt Q9P1W9 (whole entry, looked up): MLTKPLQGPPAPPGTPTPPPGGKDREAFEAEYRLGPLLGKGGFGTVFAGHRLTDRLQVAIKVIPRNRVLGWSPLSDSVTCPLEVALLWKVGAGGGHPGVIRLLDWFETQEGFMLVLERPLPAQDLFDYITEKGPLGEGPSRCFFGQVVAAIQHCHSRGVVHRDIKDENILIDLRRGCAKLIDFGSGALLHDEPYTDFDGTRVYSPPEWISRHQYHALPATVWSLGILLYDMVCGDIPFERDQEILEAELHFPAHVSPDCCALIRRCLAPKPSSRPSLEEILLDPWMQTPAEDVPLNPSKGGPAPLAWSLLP
Chain of UniProt P10721 (whole entry, looked up): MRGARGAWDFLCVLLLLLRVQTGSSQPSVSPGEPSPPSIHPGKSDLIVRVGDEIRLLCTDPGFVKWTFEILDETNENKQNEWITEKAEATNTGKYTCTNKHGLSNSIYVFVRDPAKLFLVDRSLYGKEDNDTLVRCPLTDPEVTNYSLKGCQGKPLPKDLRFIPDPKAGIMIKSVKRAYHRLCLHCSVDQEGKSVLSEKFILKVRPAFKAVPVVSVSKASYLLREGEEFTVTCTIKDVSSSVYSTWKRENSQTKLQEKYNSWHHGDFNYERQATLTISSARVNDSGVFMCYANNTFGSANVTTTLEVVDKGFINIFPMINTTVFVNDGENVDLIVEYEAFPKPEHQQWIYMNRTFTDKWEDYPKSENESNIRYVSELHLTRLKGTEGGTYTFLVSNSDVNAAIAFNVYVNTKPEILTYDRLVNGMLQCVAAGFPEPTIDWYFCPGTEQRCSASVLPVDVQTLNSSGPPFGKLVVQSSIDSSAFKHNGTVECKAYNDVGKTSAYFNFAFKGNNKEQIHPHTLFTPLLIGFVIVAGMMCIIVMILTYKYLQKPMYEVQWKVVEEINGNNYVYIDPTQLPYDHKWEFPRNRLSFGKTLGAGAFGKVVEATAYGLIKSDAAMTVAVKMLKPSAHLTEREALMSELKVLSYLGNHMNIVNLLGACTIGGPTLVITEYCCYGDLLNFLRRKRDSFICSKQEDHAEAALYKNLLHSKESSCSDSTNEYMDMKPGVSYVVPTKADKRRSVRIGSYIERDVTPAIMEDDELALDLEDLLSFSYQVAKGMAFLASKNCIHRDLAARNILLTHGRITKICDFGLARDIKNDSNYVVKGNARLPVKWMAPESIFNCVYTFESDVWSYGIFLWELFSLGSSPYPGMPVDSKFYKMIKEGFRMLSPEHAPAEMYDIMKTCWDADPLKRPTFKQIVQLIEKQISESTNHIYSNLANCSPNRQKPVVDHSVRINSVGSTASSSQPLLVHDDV
Chain of UniProt Q8NEB9 (whole entry, looked up): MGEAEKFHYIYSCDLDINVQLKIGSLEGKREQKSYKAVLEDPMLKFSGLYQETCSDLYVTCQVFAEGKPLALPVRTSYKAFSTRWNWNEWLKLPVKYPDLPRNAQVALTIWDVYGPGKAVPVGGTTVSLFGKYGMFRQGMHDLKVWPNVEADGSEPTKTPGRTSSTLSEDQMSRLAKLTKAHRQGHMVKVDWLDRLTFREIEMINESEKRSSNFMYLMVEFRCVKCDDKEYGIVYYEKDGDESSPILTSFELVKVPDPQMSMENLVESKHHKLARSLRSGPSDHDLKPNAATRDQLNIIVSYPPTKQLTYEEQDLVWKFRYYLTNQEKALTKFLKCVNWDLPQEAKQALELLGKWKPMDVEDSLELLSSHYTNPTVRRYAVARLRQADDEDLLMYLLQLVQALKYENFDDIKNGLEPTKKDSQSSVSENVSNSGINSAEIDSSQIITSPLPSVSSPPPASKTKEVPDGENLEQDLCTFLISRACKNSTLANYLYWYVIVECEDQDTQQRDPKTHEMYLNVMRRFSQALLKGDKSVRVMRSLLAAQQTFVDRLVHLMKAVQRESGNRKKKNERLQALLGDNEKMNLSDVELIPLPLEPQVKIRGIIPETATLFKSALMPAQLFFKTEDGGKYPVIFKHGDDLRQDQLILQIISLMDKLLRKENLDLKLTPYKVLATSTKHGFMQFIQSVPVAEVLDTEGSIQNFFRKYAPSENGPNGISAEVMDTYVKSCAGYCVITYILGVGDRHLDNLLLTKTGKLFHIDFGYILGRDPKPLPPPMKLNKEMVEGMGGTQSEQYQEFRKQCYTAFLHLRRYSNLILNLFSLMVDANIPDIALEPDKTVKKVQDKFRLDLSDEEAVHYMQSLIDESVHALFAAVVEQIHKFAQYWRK
Chain of UniProt Q92630 (whole entry, looked up): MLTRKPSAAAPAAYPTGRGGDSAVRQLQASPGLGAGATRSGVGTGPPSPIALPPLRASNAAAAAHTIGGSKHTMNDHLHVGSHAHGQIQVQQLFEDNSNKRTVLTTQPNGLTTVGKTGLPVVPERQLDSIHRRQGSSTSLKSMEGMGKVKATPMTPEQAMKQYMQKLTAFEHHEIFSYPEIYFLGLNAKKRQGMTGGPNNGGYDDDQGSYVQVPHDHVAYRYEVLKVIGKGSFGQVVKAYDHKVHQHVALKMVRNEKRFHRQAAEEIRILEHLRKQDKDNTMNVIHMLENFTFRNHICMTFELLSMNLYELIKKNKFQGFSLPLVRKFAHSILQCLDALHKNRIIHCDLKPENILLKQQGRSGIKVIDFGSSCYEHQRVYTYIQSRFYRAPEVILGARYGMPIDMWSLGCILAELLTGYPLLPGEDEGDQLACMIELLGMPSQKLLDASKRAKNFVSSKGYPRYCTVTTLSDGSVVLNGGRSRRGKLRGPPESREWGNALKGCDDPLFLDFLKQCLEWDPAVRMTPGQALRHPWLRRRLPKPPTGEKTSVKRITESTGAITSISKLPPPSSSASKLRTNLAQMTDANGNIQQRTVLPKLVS
Chain of UniProt P45983 (whole entry, looked up): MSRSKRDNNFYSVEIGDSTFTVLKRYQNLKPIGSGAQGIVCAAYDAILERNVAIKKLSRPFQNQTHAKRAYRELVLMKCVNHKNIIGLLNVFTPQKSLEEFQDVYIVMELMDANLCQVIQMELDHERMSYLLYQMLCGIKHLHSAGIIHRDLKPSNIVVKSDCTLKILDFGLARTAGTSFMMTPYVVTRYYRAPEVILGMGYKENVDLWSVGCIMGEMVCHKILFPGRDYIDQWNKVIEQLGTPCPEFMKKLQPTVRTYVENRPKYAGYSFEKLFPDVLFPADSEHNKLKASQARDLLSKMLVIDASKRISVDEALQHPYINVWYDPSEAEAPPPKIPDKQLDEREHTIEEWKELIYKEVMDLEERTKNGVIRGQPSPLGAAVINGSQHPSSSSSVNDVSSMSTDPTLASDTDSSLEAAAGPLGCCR

Set 1 — observed: cell-free assay; method: competition with immobilised ligand; tested at: 0.1 µM
Compound: CS(=O)(=O)N1CCCC(NC(=O)[C@H](CCC2CCCCC2)NC(=O)c2ccc(CNC(=O)c3cnc4ccccn34)cc2)C1 (stereo partly shown)
target	remaining binding [%]
Serine/threonine-protein kinase Chk1 (CHEK1, Homo sapiens, UniProt O14757)	100
Phosphatidylinositol 3-kinase C2 domain-containing subunit gamma (PIK3C2G, Homo sapiens, UniProt O75747)	100
Dual specificity tyrosine-phosphorylation-regulated kinase 2 (DYRK2, Homo sapiens, UniProt Q92630)	100
Phosphatidylinositol 4-phosphate 5-kinase type-1 alpha (PIP5K1A, Homo sapiens, UniProt Q99755)	89
Tyrosine-protein kinase ZAP-70 (ZAP70, Homo sapiens, UniProt P43403)	100
Activin receptor type-1B (ACVR1B, Homo sapiens, UniProt P36896)	96
BDNF/NT-3 growth factors receptor (NTRK2, Homo sapiens, UniProt Q16620)	87
Mitogen-activated protein kinase 8 (MAPK8, Homo sapiens, UniProt P45983)	100
Phosphatidylinositol 3-kinase catalytic subunit type 3 (PIK3C3, Homo sapiens, UniProt Q8NEB9)	100
Serine/threonine-protein kinase LATS2 (LATS2, Homo sapiens, UniProt Q9NRM7)	76
Epidermal growth factor receptor (EGFR, Homo sapiens, UniProt P00533, del747-752/P753S)	99
Activin receptor type-1-like (ACVRL1, Homo sapiens, UniProt P37023)	96
Serine/threonine-protein kinase MRCK beta (CDC42BPB, Homo sapiens, UniProt Q9Y5S2)	100
Ephrin type-A receptor 1 (EPHA1, Homo sapiens, UniProt P21709)	93
Ribosomal protein S6 kinase alpha-6, C-terminal kinase domain (RPS6KA6, Homo sapiens, UniProt Q9UK32)	82
Phosphatidylinositol 4,5-bisphosphate 3-kinase catalytic subunit alpha isoform (PIK3CA, Homo sapiens, UniProt P42336, I800L)	100
Ephrin type-A receptor 5 (EPHA5, Homo sapiens, UniProt P54756)	100
Mast/stem cell growth factor receptor Kit (KIT, Homo sapiens, UniProt P10721)	63
TGF-beta receptor type-2 (TGFBR2, Homo sapiens, UniProt P37173)	91
Macrophage-stimulating protein receptor (MST1R, Homo sapiens, UniProt Q04912)	100
Serine/threonine-protein kinase TAO3 (TAOK3, Homo sapiens, UniProt Q9H2K8)	83
Cyclin-dependent kinase 7 (CDK7, Homo sapiens, UniProt P50613)	100

Set 2 — action: agonist
Target: Beta-1 adrenergic receptor (ADRB1, Homo sapiens, UniProt P08588)
Chain of UniProt P08588 (whole entry, looked up): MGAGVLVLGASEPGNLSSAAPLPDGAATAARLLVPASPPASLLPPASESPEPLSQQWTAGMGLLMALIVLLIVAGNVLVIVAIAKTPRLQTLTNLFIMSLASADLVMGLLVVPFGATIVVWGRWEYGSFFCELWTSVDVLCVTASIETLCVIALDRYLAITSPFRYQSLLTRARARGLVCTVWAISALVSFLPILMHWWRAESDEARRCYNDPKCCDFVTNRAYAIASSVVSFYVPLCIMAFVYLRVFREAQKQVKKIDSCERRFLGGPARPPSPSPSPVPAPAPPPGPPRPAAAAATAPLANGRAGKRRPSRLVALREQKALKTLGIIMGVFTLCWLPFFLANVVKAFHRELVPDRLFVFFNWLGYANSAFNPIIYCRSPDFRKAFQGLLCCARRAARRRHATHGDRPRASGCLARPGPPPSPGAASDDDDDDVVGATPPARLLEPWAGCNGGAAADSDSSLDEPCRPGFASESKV
SMILES	Emax [%]
COc1ccccc1N1CCN(C2CC(=O)N(CCc3ccccc3)C2=O)CC1 (stereo not shown)	29.1
OC(COc1ccccc1)CN1CCN(Cc2cnc3ccccc3c2)CC1 (stereo not shown)	86.6
CCCN(CCc1ccccc1)C1CCc2c(O)cccc2C1 (stereo not shown)	68.6
CN(CCC(N)=O)Cc1ccccc1OCC(O)CN1CCc2ccccc2C1 (stereo not shown)	92.6
C[C@H](N)[C@H](O)c1cccc(O)c1	98.2
COc1ccccc1N1CCN(CC[C@@H]2CC[C@H](O)[C@@H](C(=O)NC3CCCCC3)O2)CC1	91.8
OC(COc1ccccc1CNCC1CCOCC1)CN1CCSCC1 (stereo not shown)	109
CCN(CC)C(=O)Nc1ccc(OCC(O)CNC(C)(C)C)c(C(C)=O)c1 (stereo not shown)	87

Set 3 — Compound: C=CCc1ccc(O)c(-c2ccc(O)c(CC=C)c2)c1; observed: chloride current
ANO1 del476-501/K629A: Anoctamin-1 (ANO1, Homo sapiens, UniProt Q5XXA6, del476-501/K629A)
Chain of UniProt Q5XXA6 (whole entry, unmodified, looked up): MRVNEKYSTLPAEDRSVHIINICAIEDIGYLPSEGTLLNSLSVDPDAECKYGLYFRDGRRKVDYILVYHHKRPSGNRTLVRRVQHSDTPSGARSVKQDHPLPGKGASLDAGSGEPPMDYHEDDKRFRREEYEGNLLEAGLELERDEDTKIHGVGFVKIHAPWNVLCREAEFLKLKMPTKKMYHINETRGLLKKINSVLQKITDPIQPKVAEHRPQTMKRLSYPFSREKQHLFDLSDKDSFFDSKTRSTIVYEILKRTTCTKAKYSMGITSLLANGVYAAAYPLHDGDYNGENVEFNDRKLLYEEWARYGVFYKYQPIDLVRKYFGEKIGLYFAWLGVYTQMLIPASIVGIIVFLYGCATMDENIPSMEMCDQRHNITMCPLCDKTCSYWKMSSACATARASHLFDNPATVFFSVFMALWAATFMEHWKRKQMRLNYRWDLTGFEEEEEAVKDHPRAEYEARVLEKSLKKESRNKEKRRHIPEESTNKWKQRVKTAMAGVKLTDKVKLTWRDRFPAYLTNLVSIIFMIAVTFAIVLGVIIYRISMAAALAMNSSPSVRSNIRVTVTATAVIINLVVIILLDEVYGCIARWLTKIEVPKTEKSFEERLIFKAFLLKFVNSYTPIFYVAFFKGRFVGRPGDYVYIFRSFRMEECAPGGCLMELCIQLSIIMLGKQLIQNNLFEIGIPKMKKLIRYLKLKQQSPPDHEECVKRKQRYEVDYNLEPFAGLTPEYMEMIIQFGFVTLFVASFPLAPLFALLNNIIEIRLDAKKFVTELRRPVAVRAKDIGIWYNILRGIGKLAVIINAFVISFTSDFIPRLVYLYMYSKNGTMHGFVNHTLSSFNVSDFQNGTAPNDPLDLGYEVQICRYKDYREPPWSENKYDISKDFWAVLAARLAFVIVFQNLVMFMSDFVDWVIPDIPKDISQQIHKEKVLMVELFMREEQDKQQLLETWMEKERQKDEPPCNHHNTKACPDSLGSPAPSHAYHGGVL
ANO1 del476-501: Anoctamin-1 (ANO1, Homo sapiens, UniProt Q5XXA6, del476-501)
ANO1 del476-501/F628A: Anoctamin-1 (ANO1, Homo sapiens, UniProt Q5XXA6, del476-501/F628A)
target	assay	setting	normalized current
ANO1 del476-501/K629A	inside-out patch clamp	10 µM, membrane voltage 100 mV	0.751
Anoctamin-1 (ANO1, Homo sapiens, UniProt Q5XXA6, del476-501/E659A/K629A)	inside-out patch clamp	10 µM, membrane voltage 40 mV	0.329
ANO1 del476-501	whole-cell voltage clamp	3 µM, wild type, I-V at -100 mV, added: 4 µM Ca2+	-0.641
ANO1 del476-501	whole-cell voltage clamp	30 µM, wild type, I-V at 40 mV, added: 4 µM Ca2+	0.0268
Anoctamin-1 (ANO1, Homo sapiens, UniProt Q5XXA6)	inside-out patch clamp	10 µM, membrane voltage 0 mV	-0.0004
ANO1 del476-501	whole-cell voltage clamp	1 µM, wild type, concentration-response at -20 mV, added: 4 µM Ca2+	-0.174
ANO1 del476-501	whole-cell voltage clamp	30 µM, wild type, I-V at 100 mV, added: 4 µM Ca2+	0.0753
Anoctamin-1 (ANO1, Homo sapiens, UniProt Q5XXA6, del476-501/E659A)	inside-out patch clamp	10 µM, membrane voltage 120 mV	1
ANO1 del476-501/K629A	inside-out patch clamp	10 µM, membrane voltage -40 mV	-0.187
ANO1 del476-501/F628A	whole-cell voltage clamp	10 µM, I-V at 80 mV, added: 4 µM Ca2+	0.544
ANO1 del476-501/F628A	whole-cell voltage clamp	1 µM, I-V at 20 mV, added: 4 µM Ca2+	0.138
ANO1 del476-501	whole-cell voltage clamp	30 µM, wild type, I-V at -20 mV, added: 4 µM Ca2+	-0.0127
ANO1 del476-501	whole-cell voltage clamp	3 µM, wild type, concentration-response at -40 mV, added: 4 µM Ca2+	-0.275

Set 4 — SMILES: CCCCc1c(-c2ccc(OC)cc2)[nH]c2nccnc12; observed: enzyme activity; action: inhibitor; tested at: 0.5 µM; baseline: control
target	remaining activity [%]
G protein-coupled receptor kinase 6 (GRK6, Homo sapiens, UniProt P43250)	88.3
Ribosomal protein S6 kinase beta-1 (RPS6KB1, Homo sapiens, UniProt P23443)	108
Serine/threonine-protein kinase pim-2 (PIM2, Homo sapiens, UniProt Q9P1W9)	115
Ribosomal protein S6 kinase alpha-1 (RPS6KA1, Homo sapiens, UniProt Q15418)	89.8
Cytoplasmic tyrosine-protein kinase BMX (BMX, Homo sapiens, UniProt P51813)	82.2
Serine/threonine-protein kinase PAK 2 (PAK2, Homo sapiens, UniProt Q13177)	97.5
Protein kinase C epsilon type (PRKCE, Homo sapiens, UniProt Q02156)	102
Fibroblast growth factor receptor 4 (FGFR4, Homo sapiens, UniProt P22455)	92.5
SRSF protein kinase 3 (SRPK3, Homo sapiens, UniProt Q9UPE1)	97.9
Protein kinase C gamma type (PRKCG, Homo sapiens, UniProt P05129)	94.4
Ephrin type-B receptor 2 (EPHB2, Homo sapiens, UniProt P29323)	88.8
Myosin light chain kinase, smooth muscle (MYLK, Homo sapiens, UniProt Q15746)	96.8
Receptor-type tyrosine-protein kinase FLT3 (FLT3, Homo sapiens, UniProt P36888)	47.8
Tyrosine-protein kinase CSK (CSK, Homo sapiens, UniProt P41240)	87
NUAK family SNF1-like kinase 1 (NUAK1, Homo sapiens, UniProt O60285)	25
Serine/threonine-protein kinase Sgk1 (SGK1, Homo sapiens, UniProt O00141)	88.4
Glycogen synthase kinase-3 alpha (GSK3A, Homo sapiens, UniProt P49840)	55.8
Beta-adrenergic receptor kinase 1 (GRK2, Homo sapiens, UniProt P25098)	78.5
Macrophage colony-stimulating factor 1 receptor (CSF1R, Homo sapiens, UniProt P07333)	37.7
Ephrin type-A receptor 7 (EPHA7, Homo sapiens, UniProt Q15375)	98
Aurora kinase C (AURKC, Homo sapiens, UniProt Q9UQB9)	55.8

Repeated from above (set 3):
target	assay	setting	normalized current
Anoctamin-1 (ANO1, Homo sapiens, UniProt Q5XXA6)	inside-out patch clamp	10 µM, membrane voltage 0 mV	-0.0004
ANO1 del476-501	whole-cell voltage clamp	1 µM, wild type, concentration-response at -20 mV, added: 4 µM Ca2+	-0.174
ANO1 del476-501	whole-cell voltage clamp	30 µM, wild type, I-V at 100 mV, added: 4 µM Ca2+	0.0753
Anoctamin-1 (ANO1, Homo sapiens, UniProt Q5XXA6, del476-501/E659A)	inside-out patch clamp	10 µM, membrane voltage 120 mV	1
ANO1 del476-501/K629A	inside-out patch clamp	10 µM, membrane voltage -40 mV	-0.187
